Assay results collected from several papers.
Each numbered part is a random draw from the data of one study; scales do not carry over between parts.
Sequence of UniProt P52564 (whole entry, looked up): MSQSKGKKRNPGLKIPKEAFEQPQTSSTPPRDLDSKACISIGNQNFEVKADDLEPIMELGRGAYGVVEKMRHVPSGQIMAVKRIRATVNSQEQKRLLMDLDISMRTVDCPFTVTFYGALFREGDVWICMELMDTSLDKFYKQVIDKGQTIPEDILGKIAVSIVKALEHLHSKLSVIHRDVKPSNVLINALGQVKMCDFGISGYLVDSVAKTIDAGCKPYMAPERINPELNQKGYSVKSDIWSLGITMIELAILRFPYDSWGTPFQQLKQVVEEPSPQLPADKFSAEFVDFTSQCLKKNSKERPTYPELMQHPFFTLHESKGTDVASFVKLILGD
Sequence of UniProt P18089 (whole entry, looked up): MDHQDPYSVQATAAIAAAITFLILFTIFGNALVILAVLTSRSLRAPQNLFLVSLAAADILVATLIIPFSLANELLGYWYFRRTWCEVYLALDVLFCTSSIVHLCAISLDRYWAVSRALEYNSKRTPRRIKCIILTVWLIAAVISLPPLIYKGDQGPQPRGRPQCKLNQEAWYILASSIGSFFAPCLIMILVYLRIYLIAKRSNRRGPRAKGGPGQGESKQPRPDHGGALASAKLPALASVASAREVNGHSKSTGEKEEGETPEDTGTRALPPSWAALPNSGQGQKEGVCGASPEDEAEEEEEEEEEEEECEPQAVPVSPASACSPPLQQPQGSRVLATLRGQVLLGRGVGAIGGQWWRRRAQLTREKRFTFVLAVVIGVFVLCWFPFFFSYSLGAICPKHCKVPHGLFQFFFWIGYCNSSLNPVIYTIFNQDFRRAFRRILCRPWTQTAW
Sequence of UniProt Q9UKI8 (whole entry, looked up): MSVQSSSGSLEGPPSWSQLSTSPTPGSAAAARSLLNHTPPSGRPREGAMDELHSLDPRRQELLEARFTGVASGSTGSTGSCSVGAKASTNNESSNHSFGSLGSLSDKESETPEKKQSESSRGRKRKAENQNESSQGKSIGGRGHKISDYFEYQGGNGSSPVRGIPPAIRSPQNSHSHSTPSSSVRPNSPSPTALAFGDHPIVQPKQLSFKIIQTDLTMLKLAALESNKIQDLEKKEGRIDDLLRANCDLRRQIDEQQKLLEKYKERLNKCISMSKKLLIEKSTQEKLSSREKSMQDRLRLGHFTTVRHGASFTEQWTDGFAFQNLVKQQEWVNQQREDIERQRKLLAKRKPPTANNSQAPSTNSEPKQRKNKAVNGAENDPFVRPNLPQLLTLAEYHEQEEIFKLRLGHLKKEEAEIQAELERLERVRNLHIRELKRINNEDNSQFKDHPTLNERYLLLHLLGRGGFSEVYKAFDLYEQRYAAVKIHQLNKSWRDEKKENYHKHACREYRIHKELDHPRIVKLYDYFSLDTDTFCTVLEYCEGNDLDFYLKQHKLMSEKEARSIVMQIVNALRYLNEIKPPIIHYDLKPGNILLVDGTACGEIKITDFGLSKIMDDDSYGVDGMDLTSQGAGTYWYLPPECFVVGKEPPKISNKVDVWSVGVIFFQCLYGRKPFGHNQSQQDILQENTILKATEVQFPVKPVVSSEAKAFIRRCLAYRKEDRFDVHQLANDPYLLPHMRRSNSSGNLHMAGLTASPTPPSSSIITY
Sequence of UniProt P47898 (whole entry, looked up): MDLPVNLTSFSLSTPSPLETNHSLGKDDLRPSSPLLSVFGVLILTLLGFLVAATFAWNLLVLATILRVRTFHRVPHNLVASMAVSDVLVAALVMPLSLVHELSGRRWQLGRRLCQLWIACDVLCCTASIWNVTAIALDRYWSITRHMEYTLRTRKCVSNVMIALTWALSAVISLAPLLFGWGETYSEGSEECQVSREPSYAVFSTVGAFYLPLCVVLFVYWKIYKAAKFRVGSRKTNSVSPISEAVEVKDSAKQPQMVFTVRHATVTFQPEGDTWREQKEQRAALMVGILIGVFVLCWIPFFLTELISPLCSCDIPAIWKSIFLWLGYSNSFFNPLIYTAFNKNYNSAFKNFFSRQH
Sequence of UniProt P46098 (whole entry, looked up): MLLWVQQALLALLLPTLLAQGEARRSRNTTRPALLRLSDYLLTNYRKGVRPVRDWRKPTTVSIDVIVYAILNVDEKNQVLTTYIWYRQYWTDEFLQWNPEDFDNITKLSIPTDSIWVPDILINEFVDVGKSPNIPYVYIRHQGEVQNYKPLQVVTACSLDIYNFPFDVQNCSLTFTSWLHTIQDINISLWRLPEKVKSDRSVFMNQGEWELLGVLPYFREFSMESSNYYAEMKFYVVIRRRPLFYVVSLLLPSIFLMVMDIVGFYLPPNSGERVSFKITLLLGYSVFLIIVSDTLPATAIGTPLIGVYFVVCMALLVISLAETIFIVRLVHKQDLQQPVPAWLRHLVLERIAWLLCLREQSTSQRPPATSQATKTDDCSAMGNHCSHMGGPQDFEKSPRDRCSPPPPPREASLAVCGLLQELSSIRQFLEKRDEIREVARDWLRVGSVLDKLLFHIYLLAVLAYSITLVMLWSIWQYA
Sequence of UniProt P13945 (whole entry, looked up): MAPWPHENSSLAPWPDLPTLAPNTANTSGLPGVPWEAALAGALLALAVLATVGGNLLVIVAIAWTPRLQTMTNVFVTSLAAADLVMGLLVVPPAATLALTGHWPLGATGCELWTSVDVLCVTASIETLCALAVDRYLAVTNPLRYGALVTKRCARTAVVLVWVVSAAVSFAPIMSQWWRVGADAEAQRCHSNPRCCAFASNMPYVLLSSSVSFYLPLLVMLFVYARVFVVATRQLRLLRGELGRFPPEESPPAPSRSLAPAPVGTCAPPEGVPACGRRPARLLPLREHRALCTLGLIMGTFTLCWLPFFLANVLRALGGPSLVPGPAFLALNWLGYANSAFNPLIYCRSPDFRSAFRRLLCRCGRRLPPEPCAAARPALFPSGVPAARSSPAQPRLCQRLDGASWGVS
Sequence of UniProt P08173 (whole entry, looked up): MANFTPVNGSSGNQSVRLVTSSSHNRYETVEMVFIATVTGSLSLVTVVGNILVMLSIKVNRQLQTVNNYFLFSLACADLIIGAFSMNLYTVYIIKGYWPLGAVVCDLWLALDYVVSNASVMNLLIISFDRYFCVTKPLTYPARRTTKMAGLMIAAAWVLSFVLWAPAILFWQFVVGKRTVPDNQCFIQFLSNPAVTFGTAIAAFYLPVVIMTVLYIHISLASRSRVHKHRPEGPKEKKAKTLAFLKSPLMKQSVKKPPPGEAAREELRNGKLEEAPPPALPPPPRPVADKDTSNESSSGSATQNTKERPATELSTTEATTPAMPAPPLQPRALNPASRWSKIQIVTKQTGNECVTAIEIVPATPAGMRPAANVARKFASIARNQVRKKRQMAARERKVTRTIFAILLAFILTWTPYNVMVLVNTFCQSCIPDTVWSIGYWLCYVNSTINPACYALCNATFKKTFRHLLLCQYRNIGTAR
Sequence of UniProt Q16288 (whole entry, looked up): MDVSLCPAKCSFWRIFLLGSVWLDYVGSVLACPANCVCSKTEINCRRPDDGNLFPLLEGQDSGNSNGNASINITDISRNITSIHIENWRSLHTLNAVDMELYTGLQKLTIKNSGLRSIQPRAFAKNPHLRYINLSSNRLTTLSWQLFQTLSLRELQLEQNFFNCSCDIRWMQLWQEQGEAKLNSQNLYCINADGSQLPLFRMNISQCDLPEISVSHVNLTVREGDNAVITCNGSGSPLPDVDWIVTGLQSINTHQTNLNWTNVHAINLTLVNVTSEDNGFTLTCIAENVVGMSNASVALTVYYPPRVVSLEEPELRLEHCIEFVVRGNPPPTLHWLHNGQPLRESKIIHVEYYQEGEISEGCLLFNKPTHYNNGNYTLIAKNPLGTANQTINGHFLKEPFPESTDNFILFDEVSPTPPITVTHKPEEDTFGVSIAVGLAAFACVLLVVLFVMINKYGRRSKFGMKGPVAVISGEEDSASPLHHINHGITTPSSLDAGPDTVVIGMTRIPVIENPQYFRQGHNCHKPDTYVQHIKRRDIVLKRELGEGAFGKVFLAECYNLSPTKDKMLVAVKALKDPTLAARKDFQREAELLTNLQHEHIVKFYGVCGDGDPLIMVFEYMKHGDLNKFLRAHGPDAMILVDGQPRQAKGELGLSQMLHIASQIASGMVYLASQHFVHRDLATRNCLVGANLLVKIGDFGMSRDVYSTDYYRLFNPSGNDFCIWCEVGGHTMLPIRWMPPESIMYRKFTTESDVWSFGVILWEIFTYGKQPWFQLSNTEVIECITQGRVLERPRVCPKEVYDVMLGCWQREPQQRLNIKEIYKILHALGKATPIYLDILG

Series 1
Target: Serine/threonine-protein kinase D2 (PRKD2, Homo sapiens, UniProt Q9BZL6)
Sequence of UniProt Q9BZL6 (whole entry, looked up): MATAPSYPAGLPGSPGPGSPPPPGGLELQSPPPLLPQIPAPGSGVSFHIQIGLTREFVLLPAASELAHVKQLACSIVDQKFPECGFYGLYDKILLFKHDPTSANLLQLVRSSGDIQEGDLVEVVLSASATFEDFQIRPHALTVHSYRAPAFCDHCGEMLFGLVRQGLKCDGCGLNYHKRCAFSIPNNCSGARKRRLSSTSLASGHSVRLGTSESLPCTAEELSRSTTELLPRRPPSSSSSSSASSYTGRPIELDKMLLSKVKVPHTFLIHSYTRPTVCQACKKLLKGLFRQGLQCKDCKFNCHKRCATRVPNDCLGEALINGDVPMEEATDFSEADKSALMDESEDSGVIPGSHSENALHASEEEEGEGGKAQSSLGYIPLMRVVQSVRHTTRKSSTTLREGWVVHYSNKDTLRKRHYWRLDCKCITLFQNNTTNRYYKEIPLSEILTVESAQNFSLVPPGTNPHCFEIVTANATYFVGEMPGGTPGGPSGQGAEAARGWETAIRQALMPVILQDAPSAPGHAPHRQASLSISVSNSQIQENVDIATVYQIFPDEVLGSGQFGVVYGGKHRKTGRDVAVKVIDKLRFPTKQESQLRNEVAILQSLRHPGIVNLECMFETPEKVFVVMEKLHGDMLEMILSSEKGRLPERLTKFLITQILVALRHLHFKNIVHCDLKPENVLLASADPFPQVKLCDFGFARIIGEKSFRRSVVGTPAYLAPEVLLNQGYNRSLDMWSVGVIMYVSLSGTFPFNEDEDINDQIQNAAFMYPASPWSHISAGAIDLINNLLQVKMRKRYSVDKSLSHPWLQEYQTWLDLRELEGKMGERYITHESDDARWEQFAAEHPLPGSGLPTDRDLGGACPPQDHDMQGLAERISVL
Effect on: enzyme activity
Action: inhibitor
Concentration: 0.5 µM
Reference: control
Measurement: remaining activity
CCCCc1c(-c2ccc(O)cc2)[nH]c2nccnc12: 95.3%
O=C(O)/C=C/c1cc(Br)c(Br)c(Br)c1Br: 71.6%
c1cc(-c2cnn3cc(-c4ccc(OCCN5CCCCC5)cc4)cnc23)ccn1: 88.3%
CNc1cc2c(Nc3cccc(Br)c3)ncnc2cn1: 86.4%
CC(C)(C)c1nc2c3cc[nH]c(=O)c3c3cc(F)ccc3c2[nH]1: 6.13%
FC(F)(F)c1ccc(/C=C/c2nc(COc3ccc(CCCCn4ccnn4)cc3)co2)cc1: 96.9%
O=C1c2ccccc2-c2nc3nnnn3nc21: 91.7%
O=C1NC(=O)/C(=C/c2ccc3c(c2)OC(F)(F)O3)S1: 91.5%
O=c1c(-c2ccc(F)cc2)c(-c2ccncc2)[nH]n1-c1ccc(Cl)cc1: 73.4%
CCN(CC)CCCCN1c2ccccc2Oc2ccc(Cl)cc21: 105%
Clc1ccc(Nc2nnc(Cc3ccncc3)c3ccccc23)cc1: 86%
COc1cc2c(Nc3ccc(Br)cc3F)ncnc2cc1OCC1CCN(C)CC1: 92%
Nc1nc(Nc2ccc(S(N)(=O)=O)cc2)nn1C(=S)Nc1c(F)cccc1F: 9.05%
N#C/C(=C(/N)SC1C=CC=CC1)c1cccc(C(O)c2ccncc2)c1 (centres unmarked): 90%
CC(C)N(CCC(=O)c1ccc2ccccc2c1)Cc1ccccc1: 98.5%
CC(C)n1cnc2c(Nc3cccc(Cl)c3)nc(NCCO)nc21: 88.1%
N#CC(c1ccnc(NCCc2cccnc2)n1)c1nc2ccccc2s1 (centres unmarked): 79.2%
O=C(c1ccccc1)c1ccc(N2CCOCC2)cc1O: 99.1%
C[C@@H](N)[C@H]1CC[C@H](C(=O)Nc2ccncc2)CC1: 96.3%
O=Nc1c(-c2c(O)[nH]c3ccccc23)[nH]c2ccccc12: 89%
NC(=O)c1cccc(-c2cc(Nc3ccc(OC(F)(F)F)cc3)ncn2)c1: 102%
NC(=O)c1ccc(-c2nc(-c3ccc4c(c3)OCCO4)c(-c3ccccn3)[nH]2)cc1: 83.4%

Series 2
Effect on: AlphaScreen signal
Method: AlphaScreen counter screen
Medium: His6 peptide without bromodomain
Concentration: 50 µM
Notes: assay interference check
Measurement: inhibition
O=C1NC(=S)SC1=Cc1ccc(-c2ccccc2Cl)o1: 12.6%
CC(=O)Cc1cc(-c2cc(CC(C)=O)[nH]n2)n[nH]1: -1.25%
Cc1ccc(NC(=O)c2snc3c(=O)[nH]cnc23)cc1: 25.8%
COc1ccc(OC)c(NC(=O)c2cc(-c3cc(Cl)ccc3O)n[nH]2)c1: 34.1%
N#CC(=Cc1ccc(O)c(O)c1)C(=O)NCc1ccccc1: 32.5%
CCOC(=O)CCNc1ccc(Nc2ccc(C)cc2)c2c1C(=O)c1ccccc1C2=O: 90.5%
COc1ccc(CNc2nc(N(CCO)CCO)nc3c2ncn3C(C)C)cc1: 22.6%
CCN(CC)CCNC(=O)c1c(C)[nH]c(/C=C2\C(=O)Nc3ccc(F)cc32)c1C: 67.3%
N#CC(=Cc1ccc(F)cc1)c1nc2ccccc2s1: 11.1%
Cn1cnc2c(NCc3ccccc3)nc(NCCO)nc21: 14.2%
O=C1Nc2ccccc2C1=Nc1sc2c(c1C(=O)Nc1ccccc1)CCCC2: 20.6%
Nc1nc(Nc2cccc(Cl)c2)c2nc[nH]c2n1: 30.7%
N#CC(=Cc1c(F)cccc1F)c1nc2ccccc2s1: 18.5%

Series 3
Structure (SMILES): C=CC(=O)N1CCC([C@@H]2CCNc3c(C(N)=O)c(-c4ccc(Oc5ccccc5)cc4)nn32)CC1
Concentration: 1 µM
Measurement: inhibition
STK17B (Homo sapiens, UniProt O94768); enzyme activity: 9%
NEK5 (Homo sapiens, UniProt Q6P3R8); enzyme activity, inhibitor: 4%
CDC42BPG (Homo sapiens, UniProt Q6DT37); inhibitor: 22%
EGFR (Homo sapiens, UniProt P00533, L858R/T790M); cell-free assay: 40%
NTRK3 (Homo sapiens, UniProt Q16288); cell-free assay: 0%
ABL2 (Homo sapiens, UniProt P42684); enzyme activity, inhibitor: 8%
FRK (Homo sapiens, UniProt P42685); enzyme activity, inhibitor: 84%
MAP2K6 (Homo sapiens, UniProt P52564); enzyme activity, inhibitor: 7%
TLK1 (Homo sapiens, UniProt Q9UKI8); enzyme activity, inhibitor: 13%
DDR1 (Homo sapiens, UniProt Q08345); cell-free assay: 29%
Tyrosine-protein kinase ABL1, phosphorylated (ABL1, Homo sapiens, UniProt P00519, H396P); enzyme activity, inhibitor: 6%
DAPK2 (Homo sapiens, UniProt Q9UIK4); enzyme activity, inhibitor: 0%
MAP2K5 (Homo sapiens, UniProt Q13163); enzyme activity, inhibitor: 94%

Series 4
SMILES: CC(=O)C1=C(C)N(c2cccc(C(F)(F)F)c2)C(=O)N[C@@H]1c1ccc(C#N)nc1
Effect on: binding
Method: radioligand binding
Concentration: 10 µM
Measurement: inhibition
HRH4 (Homo sapiens, UniProt Q9H3N8): 25.9%
HTR7 (Homo sapiens, UniProt P34969): 3.93%
HTR3A (Homo sapiens, UniProt P46098): -7.63%
ADRA2B (Homo sapiens, UniProt P18089): -1.73%
CHRM4 (Homo sapiens, UniProt P08173): -6.72%
HRH2 (Homo sapiens, UniProt P25021): 14.5%
ADRB3 (Homo sapiens, UniProt P13945): -0.551%
CHRM2 (Homo sapiens, UniProt P08172): -12.5%
HTR5A (Homo sapiens, UniProt P47898): 4.22%
DRD1 (Homo sapiens, UniProt P21728): -8.4%
HRH1 (Homo sapiens, UniProt P35367): 34.1%
ADRA1B (Homo sapiens, UniProt P35368): -1.17%
ADRA1D (Homo sapiens, UniProt P25100): 3.11%
ADRA2C (Homo sapiens, UniProt P18825): 20.2%

Repeated from above (series 1):
CNc1cc2c(Nc3cccc(Br)c3)ncnc2cn1: 86.4%
CC(C)(C)c1nc2c3cc[nH]c(=O)c3c3cc(F)ccc3c2[nH]1: 6.13%
FC(F)(F)c1ccc(/C=C/c2nc(COc3ccc(CCCCn4ccnn4)cc3)co2)cc1: 96.9%
O=C1c2ccccc2-c2nc3nnnn3nc21: 91.7%
O=C1NC(=O)/C(=C/c2ccc3c(c2)OC(F)(F)O3)S1: 91.5%
O=c1c(-c2ccc(F)cc2)c(-c2ccncc2)[nH]n1-c1ccc(Cl)cc1: 73.4%
